Results of several laboratories.
A part holds a random share of what one study measured.
Chain of UniProt Q13153 (whole entry, looked up): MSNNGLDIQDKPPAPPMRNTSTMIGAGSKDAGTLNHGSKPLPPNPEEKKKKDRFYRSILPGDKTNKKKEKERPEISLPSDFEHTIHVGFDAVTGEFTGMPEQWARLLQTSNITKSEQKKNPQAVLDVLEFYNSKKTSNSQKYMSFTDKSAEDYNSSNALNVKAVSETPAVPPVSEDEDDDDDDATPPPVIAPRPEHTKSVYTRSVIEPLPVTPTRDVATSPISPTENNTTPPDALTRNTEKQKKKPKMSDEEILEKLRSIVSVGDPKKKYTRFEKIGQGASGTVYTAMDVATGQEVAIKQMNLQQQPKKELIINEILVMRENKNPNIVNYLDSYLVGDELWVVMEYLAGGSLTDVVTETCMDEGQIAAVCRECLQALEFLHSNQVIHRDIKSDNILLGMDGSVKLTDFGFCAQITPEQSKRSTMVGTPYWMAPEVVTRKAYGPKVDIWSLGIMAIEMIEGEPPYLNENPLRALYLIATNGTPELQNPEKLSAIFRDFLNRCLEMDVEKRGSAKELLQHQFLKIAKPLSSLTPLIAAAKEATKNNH
Chain of UniProt P62344 (whole entry, looked up): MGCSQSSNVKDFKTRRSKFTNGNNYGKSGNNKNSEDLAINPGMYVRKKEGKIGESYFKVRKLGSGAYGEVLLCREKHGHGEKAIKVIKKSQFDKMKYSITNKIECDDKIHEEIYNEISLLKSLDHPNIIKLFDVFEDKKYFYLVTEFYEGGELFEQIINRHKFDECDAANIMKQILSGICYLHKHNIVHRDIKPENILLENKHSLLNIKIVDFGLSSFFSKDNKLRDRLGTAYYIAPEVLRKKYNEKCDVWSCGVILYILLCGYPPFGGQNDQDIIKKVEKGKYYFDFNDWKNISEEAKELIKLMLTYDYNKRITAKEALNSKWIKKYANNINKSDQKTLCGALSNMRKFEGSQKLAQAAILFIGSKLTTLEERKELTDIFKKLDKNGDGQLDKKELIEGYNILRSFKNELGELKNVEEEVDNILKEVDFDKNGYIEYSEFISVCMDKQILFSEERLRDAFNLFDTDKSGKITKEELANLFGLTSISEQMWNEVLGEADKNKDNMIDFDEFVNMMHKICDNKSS
Chain of UniProt P00742 (whole entry, looked up): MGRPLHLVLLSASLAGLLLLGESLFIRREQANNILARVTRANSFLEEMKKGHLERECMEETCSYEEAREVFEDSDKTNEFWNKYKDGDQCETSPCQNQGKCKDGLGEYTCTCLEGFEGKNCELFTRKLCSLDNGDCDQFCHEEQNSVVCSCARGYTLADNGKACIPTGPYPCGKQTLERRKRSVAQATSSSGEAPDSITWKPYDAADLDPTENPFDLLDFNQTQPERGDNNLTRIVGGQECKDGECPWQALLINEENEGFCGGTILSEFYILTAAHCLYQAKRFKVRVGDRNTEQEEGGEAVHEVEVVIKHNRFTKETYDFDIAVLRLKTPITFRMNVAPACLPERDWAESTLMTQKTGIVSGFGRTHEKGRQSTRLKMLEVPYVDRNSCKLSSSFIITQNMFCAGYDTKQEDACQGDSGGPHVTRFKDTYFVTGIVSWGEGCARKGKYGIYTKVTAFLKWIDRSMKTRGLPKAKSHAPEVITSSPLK
Chain of UniProt P03951 (whole entry, looked up): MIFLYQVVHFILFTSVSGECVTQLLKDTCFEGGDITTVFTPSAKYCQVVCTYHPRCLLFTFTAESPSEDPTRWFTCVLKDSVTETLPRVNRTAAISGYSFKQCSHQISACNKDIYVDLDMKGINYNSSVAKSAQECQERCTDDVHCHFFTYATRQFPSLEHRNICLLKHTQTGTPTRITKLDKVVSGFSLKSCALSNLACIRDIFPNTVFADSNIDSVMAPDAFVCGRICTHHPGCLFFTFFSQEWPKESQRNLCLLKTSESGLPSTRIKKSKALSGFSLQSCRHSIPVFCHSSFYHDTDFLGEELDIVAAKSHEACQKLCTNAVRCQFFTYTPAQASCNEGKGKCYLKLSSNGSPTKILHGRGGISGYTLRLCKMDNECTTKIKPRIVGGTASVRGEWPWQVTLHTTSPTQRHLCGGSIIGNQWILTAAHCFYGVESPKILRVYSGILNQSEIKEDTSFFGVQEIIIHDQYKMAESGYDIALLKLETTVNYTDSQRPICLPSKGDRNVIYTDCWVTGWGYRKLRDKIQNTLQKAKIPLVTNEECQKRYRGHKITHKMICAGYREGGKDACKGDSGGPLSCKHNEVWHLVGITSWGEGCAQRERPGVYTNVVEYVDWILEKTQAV
Chain of UniProt Q8IU80 (whole entry, looked up): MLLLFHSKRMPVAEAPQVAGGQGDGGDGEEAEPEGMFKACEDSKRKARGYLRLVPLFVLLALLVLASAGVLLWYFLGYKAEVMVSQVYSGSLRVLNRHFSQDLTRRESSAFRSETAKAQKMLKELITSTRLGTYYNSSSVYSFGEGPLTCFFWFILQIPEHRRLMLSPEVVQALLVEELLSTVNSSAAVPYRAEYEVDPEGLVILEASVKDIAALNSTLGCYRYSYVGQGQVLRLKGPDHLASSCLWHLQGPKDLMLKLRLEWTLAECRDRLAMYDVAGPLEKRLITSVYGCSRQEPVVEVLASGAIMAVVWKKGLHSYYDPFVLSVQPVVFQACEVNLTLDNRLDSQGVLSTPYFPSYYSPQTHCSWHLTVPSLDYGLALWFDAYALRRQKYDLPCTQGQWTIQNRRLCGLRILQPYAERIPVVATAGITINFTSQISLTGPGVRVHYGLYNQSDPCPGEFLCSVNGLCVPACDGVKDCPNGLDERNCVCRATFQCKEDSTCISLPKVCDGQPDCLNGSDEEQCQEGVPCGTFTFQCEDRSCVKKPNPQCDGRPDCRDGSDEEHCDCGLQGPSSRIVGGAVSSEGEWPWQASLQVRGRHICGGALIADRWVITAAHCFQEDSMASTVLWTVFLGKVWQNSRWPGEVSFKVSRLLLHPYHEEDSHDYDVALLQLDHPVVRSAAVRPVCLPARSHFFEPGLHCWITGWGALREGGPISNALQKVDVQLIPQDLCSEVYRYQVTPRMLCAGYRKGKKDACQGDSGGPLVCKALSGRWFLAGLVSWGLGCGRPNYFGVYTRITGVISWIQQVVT

Series 1
Compound: N=C(N)c1ccc2cc(OC(=O)c3ccc(N=C(N)N)cc3)ccc2c1
| target | IC50 |
| --- | --- |
| F11 (Homo sapiens, UniProt P03951) | 0.856 nM |
| F10 (Homo sapiens, UniProt P00742) | 1110 nM |
| Transmembrane protease serine 6 (Homo sapiens, UniProt Q8IU80) | < 0.508 nM |
| PLAU (Homo sapiens, UniProt P00749) | < 0.508 nM |

Series 2
Target: HLA class I histocompatibility antigen, A alpha chain, allele A*80:01 (Homo sapiens, UniProt P04439)
Read-out: peptide-MHC binding
Molecule type: peptide
Concentration: concentration not given
| Sequence | binding |
| --- | --- |
| FAAPHRGVA | inactive |
| SMLCWLGMT | inactive |
| FIVEHINAM | inactive |
| SSHNHIPGY | inactive |
| IESNPLFPV | inactive |
| AINGFVLPK | inactive |
| DEQEFFYSQ | inactive |
| VHYGQGWLY | active |

Series 3
Target: UBE2D3 UBC core domain (UniProt P61077)
Method: yeast two-hybrid
Sample: yeast
Notes: mostly zero background
Baseline: not given
Direction: higher = stronger interaction
B1: RC3H1 RING domain (UniProt Q5TC82); chain QAPQWTDFLSCPICTQTFDETIRKPISLGCGHTVCKMCLNKLHRKACPFDQTTINTDIELL
B2: TRIM43 RING domain (UniProt Q96BQ3); chain FSHAFQKELTCVICLNYLVDPVTICCGHSFCRPCLCLSWEEAQSPANCPACREPSPKMDFKT
B3: MKRN1 RING domain (UniProt Q9UHC7); chain FAVQRSKDMVCGICMEVVYEKANPSERRFGILSNCNHTYCLKCIRKWRSAKQFESKIIKSCPECRITSNFVIPSE
B4: RNF38 RING domain (UniProt Q9H0F5); chain PNNHQSEQTLCVVCMCDFESRQLLRVLPCNHEFHAKCVDKWLKANRTCPICRADASEVHRDS
B5: TRIM5 RING domain (UniProt Q9C035); chain ILVNVKEEVTCPICLELLTQPLSLDCGHSFCQACLTANHKKSMLDKGESSCPVCRISYQPENIRP
Construct (chain): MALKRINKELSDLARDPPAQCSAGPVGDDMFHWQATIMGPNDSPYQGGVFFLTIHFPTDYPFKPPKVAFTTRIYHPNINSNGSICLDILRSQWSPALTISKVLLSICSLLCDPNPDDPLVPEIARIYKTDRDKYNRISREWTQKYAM
| Sequence | lacZ reporter activity |
| --- | --- |
| B1 (RC3H1 RING domain) | 0 |
| DHGAVGQEMCCPICCSEYVKGEVATELPCHHYFHKPCVSIWLQKSGTCPVCRCMFPPPL (PJA1 RING domain (UniProt Q8NG27)) | 0 |
| B2 (TRIM43 RING domain) | 0 |
| B3 (MKRN1 RING domain) | 0 |
| B4 (RNF38 RING domain) | 0 |
| FQGDVDEDLICPICSGVLEEPVQAPHCEHAFCNACITQWFSQQQTCPVDRSVVTVAHLRP (RNF41 RING domain (UniProt Q9H4P4)) | 0 |
| B5 (TRIM5 RING domain) | 0 |
| PAELEVQASECVVCLEREAQMIFLNCGHVCCCQQCCQPLRTCPLCRQDIAQRLRIY (LRSAM1 RING domain (UniProt Q6UWE0)) | 0 |

Further values, each from its own experiment
| Structure (SMILES) | tested on | test | system | setting | quantity | value |
| --- | --- | --- | --- | --- | --- | --- |
| CO[C@@H](C)c1c(Nc2ccc([C@@H](N(C)C(=O)C3CCS(=O)(=O)CC3)C(F)(F)F)cc2)cnc2cc(Cl)nn12 | CDPK1 (Plasmodium falciparum, UniProt P62344) | cell-free assay, competition with immobilised ligand |  | 1 µM | remaining binding | 78% |
| Cc1cccc(C)c1-n1nnnc1C1(N)CCC(C)CC1 (centres unmarked) |  |  | mouse, microsomes or S9 | 2 µM, 0.5 h | remaining compound | 0.44% |
| CCCCN(CCCC)C(=O)CN1C[C@@H](c2cc(OC)c3c(c2)OCO3)[C@H](C(=O)O)[C@H]1CC(C)(C)CCC | PAK1 (Homo sapiens, UniProt Q13153) | cell-free assay, competition with immobilised ligand |  | 1 µM | remaining binding | 95.9% |

Some of these lines once more (series 3):
| Sequence | lacZ reporter activity |
| --- | --- |
| B3 (MKRN1 RING domain) | 0 |
